# Measurements from different studies.
# Parts stem from different laboratories: compare values within a part only. Several values in a cell are separate wells, animals, samples, runs or records.
# Chain of UniProt Q13131 (whole entry, looked up): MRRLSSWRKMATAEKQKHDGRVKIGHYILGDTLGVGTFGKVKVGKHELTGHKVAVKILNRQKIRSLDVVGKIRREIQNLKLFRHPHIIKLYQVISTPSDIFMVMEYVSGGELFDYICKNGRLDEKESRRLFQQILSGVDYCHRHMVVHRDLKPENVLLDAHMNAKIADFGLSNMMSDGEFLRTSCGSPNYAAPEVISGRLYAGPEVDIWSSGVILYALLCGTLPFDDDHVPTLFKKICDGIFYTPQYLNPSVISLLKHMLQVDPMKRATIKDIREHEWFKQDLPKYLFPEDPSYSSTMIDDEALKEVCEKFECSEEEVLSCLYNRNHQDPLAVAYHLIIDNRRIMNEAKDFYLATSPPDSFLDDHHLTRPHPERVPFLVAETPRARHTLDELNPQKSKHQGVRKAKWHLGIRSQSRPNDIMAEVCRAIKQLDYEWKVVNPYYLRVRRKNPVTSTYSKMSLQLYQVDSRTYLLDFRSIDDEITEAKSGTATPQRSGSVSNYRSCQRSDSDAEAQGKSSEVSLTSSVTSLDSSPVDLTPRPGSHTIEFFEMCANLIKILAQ
# Chain of UniProt P42685 (whole entry, looked up): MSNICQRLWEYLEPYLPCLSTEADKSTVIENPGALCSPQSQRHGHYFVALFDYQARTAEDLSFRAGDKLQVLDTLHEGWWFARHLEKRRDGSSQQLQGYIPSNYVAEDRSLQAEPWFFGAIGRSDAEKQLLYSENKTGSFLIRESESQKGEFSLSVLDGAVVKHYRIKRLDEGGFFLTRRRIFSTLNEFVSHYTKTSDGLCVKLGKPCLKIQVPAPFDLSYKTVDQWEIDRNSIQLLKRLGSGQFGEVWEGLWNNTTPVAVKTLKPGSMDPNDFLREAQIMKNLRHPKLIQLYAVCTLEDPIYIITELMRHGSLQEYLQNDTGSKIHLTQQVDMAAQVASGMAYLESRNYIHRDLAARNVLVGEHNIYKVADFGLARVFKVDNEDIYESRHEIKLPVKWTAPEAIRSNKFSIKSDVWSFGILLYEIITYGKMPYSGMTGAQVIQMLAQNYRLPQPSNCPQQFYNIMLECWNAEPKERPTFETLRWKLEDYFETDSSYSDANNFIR
# Chain of UniProt Q15418 (whole entry, looked up): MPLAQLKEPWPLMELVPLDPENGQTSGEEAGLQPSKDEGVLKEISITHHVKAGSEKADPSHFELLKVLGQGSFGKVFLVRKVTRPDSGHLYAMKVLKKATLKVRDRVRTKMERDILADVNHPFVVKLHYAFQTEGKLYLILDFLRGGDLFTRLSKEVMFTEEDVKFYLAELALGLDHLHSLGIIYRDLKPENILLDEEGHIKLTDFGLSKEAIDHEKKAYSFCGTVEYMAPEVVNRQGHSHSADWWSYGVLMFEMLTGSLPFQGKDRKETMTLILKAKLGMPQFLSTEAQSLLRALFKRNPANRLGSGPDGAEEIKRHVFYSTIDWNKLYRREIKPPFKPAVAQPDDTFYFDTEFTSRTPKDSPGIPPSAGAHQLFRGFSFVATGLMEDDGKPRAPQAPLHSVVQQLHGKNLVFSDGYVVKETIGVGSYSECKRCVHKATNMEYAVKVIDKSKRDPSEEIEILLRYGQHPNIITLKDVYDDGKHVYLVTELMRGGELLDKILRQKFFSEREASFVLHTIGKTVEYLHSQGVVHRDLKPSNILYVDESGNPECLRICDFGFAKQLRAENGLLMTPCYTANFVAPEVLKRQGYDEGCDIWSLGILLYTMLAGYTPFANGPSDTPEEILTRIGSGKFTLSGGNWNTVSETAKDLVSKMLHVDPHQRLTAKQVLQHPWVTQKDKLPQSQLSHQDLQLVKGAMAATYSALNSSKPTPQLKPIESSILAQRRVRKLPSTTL
# Chain of UniProt P21860 (whole entry, looked up): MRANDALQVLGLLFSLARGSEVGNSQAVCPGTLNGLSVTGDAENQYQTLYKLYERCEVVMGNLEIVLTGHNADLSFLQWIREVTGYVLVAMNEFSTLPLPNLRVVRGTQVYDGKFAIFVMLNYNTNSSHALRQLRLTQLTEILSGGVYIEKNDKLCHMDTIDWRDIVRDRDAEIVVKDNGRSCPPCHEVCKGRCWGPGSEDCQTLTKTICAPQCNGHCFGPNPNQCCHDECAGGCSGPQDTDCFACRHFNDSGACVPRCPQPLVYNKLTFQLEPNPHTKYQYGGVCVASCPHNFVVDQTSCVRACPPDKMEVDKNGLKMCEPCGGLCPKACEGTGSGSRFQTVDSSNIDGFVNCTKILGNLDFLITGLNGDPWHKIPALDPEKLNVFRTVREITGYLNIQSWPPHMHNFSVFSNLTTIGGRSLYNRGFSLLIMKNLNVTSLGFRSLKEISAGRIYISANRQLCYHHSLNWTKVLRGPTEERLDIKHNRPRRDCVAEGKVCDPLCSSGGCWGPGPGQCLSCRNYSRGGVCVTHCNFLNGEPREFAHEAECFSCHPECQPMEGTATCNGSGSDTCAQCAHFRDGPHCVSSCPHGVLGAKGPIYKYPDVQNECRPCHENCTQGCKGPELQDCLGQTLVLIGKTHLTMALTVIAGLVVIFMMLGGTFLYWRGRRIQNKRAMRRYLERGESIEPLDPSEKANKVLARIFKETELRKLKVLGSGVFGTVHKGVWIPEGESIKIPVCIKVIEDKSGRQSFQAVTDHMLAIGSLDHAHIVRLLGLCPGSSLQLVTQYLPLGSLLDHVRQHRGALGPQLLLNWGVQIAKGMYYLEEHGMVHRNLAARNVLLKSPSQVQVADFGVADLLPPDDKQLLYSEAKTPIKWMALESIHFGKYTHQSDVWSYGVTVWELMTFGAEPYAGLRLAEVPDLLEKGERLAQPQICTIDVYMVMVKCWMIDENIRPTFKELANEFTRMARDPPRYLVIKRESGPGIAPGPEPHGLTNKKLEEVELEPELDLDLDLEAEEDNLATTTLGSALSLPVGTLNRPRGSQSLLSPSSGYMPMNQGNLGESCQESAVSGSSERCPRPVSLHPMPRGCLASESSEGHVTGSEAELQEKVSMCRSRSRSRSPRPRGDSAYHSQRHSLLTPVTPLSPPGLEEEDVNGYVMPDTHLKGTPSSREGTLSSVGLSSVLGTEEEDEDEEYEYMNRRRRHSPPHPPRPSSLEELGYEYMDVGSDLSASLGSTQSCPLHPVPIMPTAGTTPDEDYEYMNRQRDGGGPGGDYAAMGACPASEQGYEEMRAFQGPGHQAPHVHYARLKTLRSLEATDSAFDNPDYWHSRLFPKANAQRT
# Chain of UniProt Q99683 (whole entry, looked up): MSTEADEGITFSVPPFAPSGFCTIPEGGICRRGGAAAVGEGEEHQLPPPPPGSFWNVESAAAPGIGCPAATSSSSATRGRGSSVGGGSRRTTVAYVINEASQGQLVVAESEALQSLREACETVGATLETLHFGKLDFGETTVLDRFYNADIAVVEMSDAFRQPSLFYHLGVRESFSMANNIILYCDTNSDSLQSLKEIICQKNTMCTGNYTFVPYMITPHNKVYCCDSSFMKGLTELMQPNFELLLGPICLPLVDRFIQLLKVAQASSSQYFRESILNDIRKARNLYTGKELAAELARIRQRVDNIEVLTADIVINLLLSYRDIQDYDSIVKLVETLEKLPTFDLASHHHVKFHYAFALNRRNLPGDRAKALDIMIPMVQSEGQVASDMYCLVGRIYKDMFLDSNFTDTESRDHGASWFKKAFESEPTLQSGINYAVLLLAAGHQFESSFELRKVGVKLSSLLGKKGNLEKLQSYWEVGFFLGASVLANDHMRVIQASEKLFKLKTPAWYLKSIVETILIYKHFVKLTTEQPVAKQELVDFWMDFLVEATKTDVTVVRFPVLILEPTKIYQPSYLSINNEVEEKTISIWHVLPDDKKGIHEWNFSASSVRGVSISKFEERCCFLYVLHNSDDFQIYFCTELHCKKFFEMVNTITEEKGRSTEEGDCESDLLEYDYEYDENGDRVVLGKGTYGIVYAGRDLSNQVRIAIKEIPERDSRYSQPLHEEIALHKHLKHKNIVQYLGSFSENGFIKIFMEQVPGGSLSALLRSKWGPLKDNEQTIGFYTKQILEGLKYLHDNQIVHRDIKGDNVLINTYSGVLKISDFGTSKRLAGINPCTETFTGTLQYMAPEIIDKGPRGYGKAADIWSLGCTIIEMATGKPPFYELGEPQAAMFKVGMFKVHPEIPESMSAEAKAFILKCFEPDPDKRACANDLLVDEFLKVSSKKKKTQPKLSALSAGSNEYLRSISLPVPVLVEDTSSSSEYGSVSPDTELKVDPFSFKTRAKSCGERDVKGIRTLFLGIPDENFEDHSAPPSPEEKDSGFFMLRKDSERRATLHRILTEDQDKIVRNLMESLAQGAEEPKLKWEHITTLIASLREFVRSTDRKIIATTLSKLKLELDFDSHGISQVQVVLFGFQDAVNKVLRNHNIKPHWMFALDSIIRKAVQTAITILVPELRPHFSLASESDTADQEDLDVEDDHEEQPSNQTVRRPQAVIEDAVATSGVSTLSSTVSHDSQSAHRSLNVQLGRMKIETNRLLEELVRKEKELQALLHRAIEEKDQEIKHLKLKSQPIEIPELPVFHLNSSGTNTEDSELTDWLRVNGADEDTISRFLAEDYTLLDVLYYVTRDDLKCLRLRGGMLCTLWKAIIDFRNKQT
# Chain of UniProt O00141 (whole entry, looked up): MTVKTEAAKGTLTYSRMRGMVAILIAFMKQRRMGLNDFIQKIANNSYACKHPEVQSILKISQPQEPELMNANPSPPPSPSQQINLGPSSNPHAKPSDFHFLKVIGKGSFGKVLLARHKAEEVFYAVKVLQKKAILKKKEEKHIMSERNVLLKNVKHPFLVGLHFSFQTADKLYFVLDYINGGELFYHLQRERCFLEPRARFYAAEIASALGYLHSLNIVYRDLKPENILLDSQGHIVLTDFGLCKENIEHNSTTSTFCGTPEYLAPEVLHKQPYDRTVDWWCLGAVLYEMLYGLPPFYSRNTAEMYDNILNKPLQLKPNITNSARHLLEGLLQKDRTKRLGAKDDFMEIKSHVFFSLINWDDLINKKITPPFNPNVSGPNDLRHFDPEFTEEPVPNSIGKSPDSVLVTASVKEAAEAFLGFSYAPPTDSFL

# Sample 1 — species: human; medium: microsomes or S9; concentration: 2 µM; time: 0.5 h
SMILES,remaining compound
N#Cc1cc(F)ccc1S(=O)(=O)N1CCCO1,93.3%
CN1CCCN(c2nc(CN3CCCCC3)nc3scc(-c4ccccc4)c23)CC1,61.2%
C/C=C/Cn1c(C(=O)c2cc(C)cc(C)c2)c(CC)c(=O)[nH]c1=O,28.2%
Cc1cccc(NC(=O)Nc2ccc(Nc3ccc(-n4cccn4)nn3)cc2)c1,31.5%
CC(C)CCn1cc(C(=O)N2CCN(c3ccccn3)CC2)c2ccccc2c1=O,0.545%
CCC1(O)CCOC2(CCN(C(=O)c3cc(Cl)ccc3F)CC2)C1 (stereo not shown),73.2%
COc1cc2cc(O)c(C)cc2cc1Cc1ccccc1,92.2%
COc1ccc(C(=O)N2CCC(n3c(C)cnc3C3CCC3)C2)cc1 (stereo not shown),72.9%
O=S1(=O)CCN(CC2CCCO2)c2c(Oc3ccc(F)cc3)nc(F)c(Cl)c21 (stereo not shown),61.1%

# Sample 2 — concentration: 1 µM
# Structure (SMILES): C=CC(=O)N1CCC([C@@H]2CCNc3c(C(N)=O)c(-c4ccc(Oc5ccccc5)cc4)nn32)CC1
target,test,inhibition [%]
"RIPK4 (Homo sapiens, UniProt P57078)","enzyme activity, inhibitor",0
"PRKAA1 (Homo sapiens, UniProt Q13131)",cell-free assay,0
"MAPK12 (Homo sapiens, UniProt P53778)","enzyme activity, inhibitor",37
"NEK11 (Homo sapiens, UniProt Q8NG66)","enzyme activity, inhibitor",0
"FLT3 (Homo sapiens, UniProt P36888, R834Q)","enzyme activity, inhibitor",0
"CSNK1E (Homo sapiens, UniProt P49674)","enzyme activity, inhibitor",19
"MAST1 (Homo sapiens, UniProt Q9Y2H9)","enzyme activity, inhibitor",12
"ERBB3 (Homo sapiens, UniProt P21860)","enzyme activity, inhibitor",53
"MERTK (Homo sapiens, UniProt Q12866)","enzyme activity, inhibitor",4

# Sample 3 — cell line: HaCaT; concentration: 100 µM; time: 60 h
SMILES,viability [%]
O=C(O)c1ccccc1Nc1cccc(C(F)(F)F)c1,99.1
O=c1c(-c2ccc(O)cc2)coc2cc(O[C@@H]3O[C@H](CO)[C@@H](O)[C@H](O)[C@H]3O)ccc12,39.6
Cn1c(=O)cc(N2CCC[C@@H](N)C2)n(Cc2ccccc2C#N)c1=O,119
COCCCC/C(=N\OCCN)c1ccc(C(F)(F)F)cc1,14.3
CC(C)(C)NCC(O)c1ccc(O)c(CO)c1 (stereo not shown),152
CC(=O)Oc1c(C)c(C)c2c(c1C)CCC(C)(CCC[C@H](C)CCC[C@H](C)CCCC(C)C)O2 (stereo partly shown),137
CN[C@@H]1[C@H](O[C@H]2[C@H](O[C@H]3[C@H](O)[C@@H](O)[C@H](NC(=N)N)[C@@H](O)[C@@H]3NC(=N)N)O[C@@H](C)[C@]2(O)CO)O[C@@H](CO)[C@H](O)[C@H]1O,126

# Sample 4 — concentration: 0.1 µM
# Structure (SMILES): CNC(=O)c1ccc(Nc2ncc(C(F)(F)F)c(NCc3nccnc3N(C)S(C)(=O)=O)n2)cc1
target,test,remaining binding
"EPHB4 (Homo sapiens, UniProt P54760)","cell-free assay, competition with immobilised ligand",94%
"LYN (Homo sapiens, UniProt P07948)","cell-free assay, competition with immobilised ligand",85%
"SYK (Homo sapiens, UniProt P43405)","cell-free assay, competition with immobilised ligand",66%
"NUAK1 (Homo sapiens, UniProt O60285)","cell-free assay, competition with immobilised ligand",31%
"FYN (Homo sapiens, UniProt P06241)","cell-free assay, competition with immobilised ligand",100%
"Ribosomal protein S6 kinase alpha-2, N-terminal kinase domain (RPS6KA2, Homo sapiens, UniProt Q15349)","cell-free assay, competition with immobilised ligand",77%
"STK17A (Homo sapiens, UniProt Q9UEE5)","cell-free assay, competition with immobilised ligand",19%
"PIK3CA (Homo sapiens, UniProt P42336, M1043I)","cell-free assay, competition with immobilised ligand",100%
"PAK1 (Homo sapiens, UniProt Q13153)","cell-free assay, competition with immobilised ligand",75%
"PRKAA1 (Homo sapiens, UniProt Q13131)","cell-free assay, competition with immobilised ligand",84%
"FRK (Homo sapiens, UniProt P42685)","cell-free assay, competition with immobilised ligand",100%
"CDK19 (Homo sapiens, UniProt Q9BWU1)",competition binding,100%
"PLK1 (Homo sapiens, UniProt P53350)","cell-free assay, competition with immobilised ligand",84%
"Tyrosine-protein kinase ABL1, phosphorylated (ABL1, Homo sapiens, UniProt P00519, Q252H)","cell-free assay, competition with immobilised ligand",100%
"MAP3K5 (Homo sapiens, UniProt Q99683)","cell-free assay, competition with immobilised ligand",100%
"EPHB2 (Homo sapiens, UniProt P29323)","cell-free assay, competition with immobilised ligand",76%
"PIK3C2B (Homo sapiens, UniProt O00750)","cell-free assay, competition with immobilised ligand",87%
"BMPR1A (Homo sapiens, UniProt P36894)","binding, competition with immobilised ligand",100%
"SGK1 (Homo sapiens, UniProt O00141)","cell-free assay, competition with immobilised ligand",56%
"YES1 (Homo sapiens, UniProt P07947)","cell-free assay, competition with immobilised ligand",100%
"Ribosomal protein S6 kinase alpha-1, N-terminal kinase domain (RPS6KA1, Homo sapiens, UniProt Q15418)","cell-free assay, competition with immobilised ligand",100%
"MAP3K13 (Homo sapiens, UniProt O43283)","cell-free assay, competition with immobilised ligand",98%
"EPHA2 (Homo sapiens, UniProt P29317)","cell-free assay, competition with immobilised ligand",86%
"PRKACB (Homo sapiens, UniProt P22694)","cell-free assay, competition with immobilised ligand",93%
"FLT3 (Homo sapiens, UniProt P36888, D835Y)","cell-free assay, competition with immobilised ligand",5.9%

# Sample 5 — read-out: binding; action: competitor; technique: NanoBRET; cells: HEK293
# Structure (SMILES): CC(=O)N1CCN(c2nc(OC[C@@H]3CCCN3C)nc3c2CCN(c2cccc4cccc(Cl)c24)C3)C[C@@H]1CC#N
# KRAS Q61H: GTPase KRas (KRAS, Homo sapiens, UniProt P01116, Q61H)
target,conditions,normalized BRET
KRAS Q61H,412 nM,83.2% and 70.9% and 72.2%
"GTPase KRas (KRAS, Homo sapiens, UniProt P01116, Q61L)",412 nM,69.9% and 67% and 74.4%
KRAS Q61H,45.7 nM,91.4% and 91% and 96.2%
"GTPase KRas (KRAS, Homo sapiens, UniProt P01116, G12D)",3.7 µM,87% and 94% and 91.8%
"GTPase KRas (KRAS, Homo sapiens, UniProt P01116, G13D)",15.2 nM,98.3% and 105% and 95.6%

# Repeated from above (sample 4):
target,test,remaining binding
"FRK (Homo sapiens, UniProt P42685)","cell-free assay, competition with immobilised ligand",100%
"CDK19 (Homo sapiens, UniProt Q9BWU1)",competition binding,100%
"PLK1 (Homo sapiens, UniProt P53350)","cell-free assay, competition with immobilised ligand",84%
"Tyrosine-protein kinase ABL1, phosphorylated (ABL1, Homo sapiens, UniProt P00519, Q252H)","cell-free assay, competition with immobilised ligand",100%
"MAP3K5 (Homo sapiens, UniProt Q99683)","cell-free assay, competition with immobilised ligand",100%
"EPHB2 (Homo sapiens, UniProt P29323)","cell-free assay, competition with immobilised ligand",76%
"PIK3C2B (Homo sapiens, UniProt O00750)","cell-free assay, competition with immobilised ligand",87%
"BMPR1A (Homo sapiens, UniProt P36894)","binding, competition with immobilised ligand",100%
"SGK1 (Homo sapiens, UniProt O00141)","cell-free assay, competition with immobilised ligand",56%
